Measurements from different studies.
Parts stem from different laboratories: compare values within a part only.

Sample 1
Target: Histone acetyltransferase KAT6A, both winged helices, GST fusion (KAT6A, Homo sapiens, UniProt Q92794, residues 1-181)
Method: protein binding microarray
Form: double-stranded DNA, one strand shown
Matrix: in vitro
Concentration: not given
Notes: 8-mer, flanks averaged, mean of 2 arrays, mostly near background
Reference: not given
Direction: higher = stronger binding
Construct (chain): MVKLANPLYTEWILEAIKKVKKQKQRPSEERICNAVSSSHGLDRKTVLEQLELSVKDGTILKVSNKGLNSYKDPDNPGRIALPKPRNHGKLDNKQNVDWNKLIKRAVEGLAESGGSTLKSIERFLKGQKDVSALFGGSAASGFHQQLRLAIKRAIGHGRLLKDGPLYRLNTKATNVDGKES
Sequence	E-score
ACTCCAGC	-0.132
ACTAGGAG	-0.172
ATCGCTTG	0.134
CCCGTCCA	0.238
ACTCTGGC	-0.128
CCAGCGCC	0.222
CCGTAAAC	0.267
ACTGAAGT	-0.147
ACAGGGTG	-0.186
AGGCGTTC	0.0637
CCGTAGGC	0.227
AATGGATG	-0.169
CTAGGGCC	-0.0383
CCTCATAA	-0.124
ATTCCACG	0.00825
CAGCATCC	-0.00266
TAATATCA	-0.12
AACCCCTG	-0.208
CCAGCCAC	-0.102
ACGTTTGG	-0.0963
TCCAGAGA	-0.169
CGGAAACA	0.3

Sample 2
Target: Sal-like protein 4, full length isoform B (SALL4, Homo sapiens, UniProt Q9UJQ4-2, residues 1-616)
Method: universal PBM
Form: double-stranded DNA, one strand shown
Matrix: in vitro
Concentration: not given
Notes: 8-mer, flanks averaged, mean of replicates
Direction: higher = stronger binding
Residues (chain): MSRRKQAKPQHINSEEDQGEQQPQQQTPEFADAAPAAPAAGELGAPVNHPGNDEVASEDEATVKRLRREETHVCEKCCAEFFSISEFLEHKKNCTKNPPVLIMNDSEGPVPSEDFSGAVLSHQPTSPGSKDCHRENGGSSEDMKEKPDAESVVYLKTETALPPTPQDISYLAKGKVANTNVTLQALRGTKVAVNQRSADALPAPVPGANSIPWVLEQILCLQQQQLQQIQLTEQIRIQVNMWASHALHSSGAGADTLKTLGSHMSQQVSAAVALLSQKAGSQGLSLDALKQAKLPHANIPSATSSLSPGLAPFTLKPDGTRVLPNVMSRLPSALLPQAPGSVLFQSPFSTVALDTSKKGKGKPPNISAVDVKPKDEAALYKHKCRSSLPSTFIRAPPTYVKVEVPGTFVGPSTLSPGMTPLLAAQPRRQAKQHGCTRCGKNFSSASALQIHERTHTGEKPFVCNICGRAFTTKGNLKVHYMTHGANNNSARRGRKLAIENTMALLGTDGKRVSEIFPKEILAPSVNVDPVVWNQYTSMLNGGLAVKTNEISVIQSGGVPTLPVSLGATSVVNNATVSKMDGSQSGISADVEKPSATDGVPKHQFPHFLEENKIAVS
Sequence	E-score
AAGTATGC	0.17
CTCACTCA	-0.0241
GATCTGAA	-0.105
AAGAACAG	-0.042
AGTTCCCA	-0.0761
AATCGCCT	-0.0495
ACCACCCG	-0.289
GCCTCGAC	-0.163
CGGATACA	0.0195
GTCTAAAA	0.046
CAGCTGGG	-0.327
GACGAAAA	0.253
AAGCTGCC	-0.188
AACTAAGA	0.158
CACGTTCC	-0.132
GCCCTGGA	-0.295
GGGGTGTA	-0.107
CAACCATC	-0.0755
AACAAAAG	0.186
GGCTACGA	-0.102
AGCGATAC	0.0414
AGTTGAAA	0.174
ACGATAGA	0.0816
TATCCACA	0.167
ATCTGTTG	-0.0344

Sample 3
Target: RNA binding protein fox-1 homolog 2, RRM domain, GST-SBP tag (RBFOX2, Homo sapiens, UniProt O43251-10, residues 100-194)
Method: RNA Bind-n-Seq
Form: RNA
Matrix: in vitro
Concentration: 365 nM
Notes: natural RNA segment, single round, ends assumed
Reference: no-protein control
Direction: higher = stronger binding
Target sequence (chain): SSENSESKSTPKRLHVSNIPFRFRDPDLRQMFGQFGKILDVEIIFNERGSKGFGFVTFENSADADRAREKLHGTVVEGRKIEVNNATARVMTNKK
Sequence	RBNS enrichment (R)
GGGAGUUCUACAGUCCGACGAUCGAGGACAGUUCCAUCCUACCUUUGUCCUUCCCUGGUACAGCCUGUGACCCUGGCACACUGCACAUGCUGAUCUGAGUGGCUCUGCUCACUGUCGCACACCCCUUCCUCUCUGGAAUUCUCGGGUGCCAA	0.728
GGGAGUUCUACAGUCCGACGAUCCUGGGGAACAGCUCUCGGUGUUGACUGCAUUGUUGCAGUCUCCCAAGUCUGCCCUGUUUUUUUAAUUCUUUAUUCUUGUGACAGCAUUUUUGGACGUUGGAAGAGCUCAGUGGAAUUCUCGGGUGCCAA	0.43
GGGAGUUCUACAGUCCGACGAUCGGAAGAACCAUGGUAGCUUGUCAGCUGGUAGAAAGAUGGUUUGUAAAAACCAGUUUCUCACGGAGGUUGAACCUAUCUGUGGCUGGACAGUCUUGGAUACUGUCAAGCAAUGGAAUUCUCGGGUGCCAA	0.283
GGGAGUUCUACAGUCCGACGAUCGUUUUAAAUGUAUGUAUUAUAAAUAUCUGUAACCAAAUCAUUUGAAGGCUUGAUAAAUUUUUAACAAAGUUUGUACAUUUUUUAUGAAAGUUACUAGUAAUGCUUUACUAUGGAAUUCUCGGGUGCCAA	0.772
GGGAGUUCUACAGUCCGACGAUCAGGGCUGAACAUAGGAUUUAUGGCUAGCAGAAUUCCAGCUCCCUUGGGUAAGGAACCAAAGCUCUCUUGGCUAUAGCCAGCCUCCUCAUUGAAGGGUGUUUUAGGGUAUCUGGAAUUCUCGGGUGCCAA	0.318
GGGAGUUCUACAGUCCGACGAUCAAUUGGUGUGUCCUAUGGAAAUGGAAAGAAAGAUAGAUAAGACAUUUCUGUCAAUUUUCAAGAACUUGGCUGUUUAUCUUUAAGAAAGAUAAAAUAUAUAUCCAAAAUAAUGGAAUUCUCGGGUGCCAA	0.584
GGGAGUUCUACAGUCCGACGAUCGCAUGCUAGAUACGGAAGAACAGGAGCGCCAGACGCAGGCCGUCCUCCAAGCCGUUGCAGACAAAGUGAAAGAGGACUCCCAGGUGCCUGCAACCCAGACUCUGCAGAGAUGGAAUUCUCGGGUGCCAA	7.01
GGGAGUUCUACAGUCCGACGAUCAUUUCUGUGUGUUGUGUAUGCUAGGUGAUGCCCUCAGAAGGGACUGACUACUAGACUGUAAGUGUGUUUUAUACAAGUGUGUAAGACUAAGACUCACGUGCACGAAUCGAUGGAAUUCUCGGGUGCCAA	2.94
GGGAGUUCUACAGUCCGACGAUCGUGCCUGGAAGGCUUCCAGCCAAAACCAGUAAUUCCCUGCUUUCUUGUAUACAGAGUGUUCACUGCUAUUUCAGAUCUUGGUGAGUGUUCCAGUAACCAAGCCAGUCCCCUGGAAUUCUCGGGUGCCAA	0.231
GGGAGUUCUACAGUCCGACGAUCCCUAUACAAAUUUCUUAAAUUGUUAGGAUCAAAGUUGAUUAUCACAGUAGUUAAAAAAUAAUUUCAUGGCGGGGCGCCAUGGCUCAUGCCUGUAAUCCUAGCACUUUGGGUGGAAUUCUCGGGUGCCAA	0.568
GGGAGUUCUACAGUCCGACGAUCUUUUGUGAGUAUUGCCUAUUAAGUAAACAACAUCCCUCAUUUUUAAUCCAAAUAUCAAUUUGACAGAAUAACAAGGGUCAGAAAUUCAAAAUAGCUGUUAGACACCUUUGUGGAAUUCUCGGGUGCCAA	0.294
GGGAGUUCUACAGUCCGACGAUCCCUCUGGCAUGGCUUUCCUUUCCCAUCGCCUUCGGAGGCCAUUUUGUCUUGAAGUCAAUGCAUGCUCGUGCUGUUCGACAGUAACCUACUCUGCCUUCUCCACCUCCGAGUGGAAUUCUCGGGUGCCAA	7.3

Sample 4
Target: RING finger protein unkempt homolog, zinc fingers 1-6, GST-SBP tag (UNK, Homo sapiens, UniProt Q9C0B0, residues 30-357)
Method: RNA Bind-n-Seq
Form: RNA
Matrix: in vitro
Concentration: not given
Notes: RNA with constant flanks, human-mouse chimeric sites, ends assumed
Reference: input RNA pool
Direction: higher = stronger binding
Target sequence (chain): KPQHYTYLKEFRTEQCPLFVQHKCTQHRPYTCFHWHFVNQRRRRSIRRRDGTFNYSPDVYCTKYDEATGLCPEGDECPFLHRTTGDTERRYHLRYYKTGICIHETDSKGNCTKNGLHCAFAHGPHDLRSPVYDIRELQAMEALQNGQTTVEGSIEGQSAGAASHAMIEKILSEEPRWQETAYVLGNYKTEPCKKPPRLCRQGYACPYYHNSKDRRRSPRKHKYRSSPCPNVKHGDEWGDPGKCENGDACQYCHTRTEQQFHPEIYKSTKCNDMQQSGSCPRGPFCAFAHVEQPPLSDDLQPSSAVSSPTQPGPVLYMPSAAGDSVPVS
Sequence	bound/input enrichment [ratio]
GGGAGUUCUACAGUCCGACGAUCUACAUUUUAUUGUUGAGUUUCAUUUUCAUAUAUUCUUGUAGUGUCUGCUUGCCUGUGUCUUUUAGUAAAAUAAAAUAAGCCUUUGAAAAUAUUUUAGCAUGGUAUUUAACAUUUUCUAAACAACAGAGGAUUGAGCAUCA	5.63
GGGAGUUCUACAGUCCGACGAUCAUAGAUGAAAUUGAUGUGGACCAGGAAGGAAUUGCUGAAAUGAUCCUGGAUGAAAAUGCUAUUGCUCAGGUCCCACGCCCUGGAACGUCUUUGAAGCUCCCUGGCACUAACCAAACAGGACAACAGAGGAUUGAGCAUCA	0.492
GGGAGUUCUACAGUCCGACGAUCCUUAAUGUUAAUAUUUUUGAAUAAAUGAAGCUAAAAUGUCUGCUUUUGGUACAACACGCAUUAGCGAAAGGUUAAGUUUUGUUUUCCACUGAAGUACUAUUUAACAUACAUCUCAGAAACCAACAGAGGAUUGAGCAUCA	0.463
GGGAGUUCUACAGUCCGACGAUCGCAAAGGAUGAUGAGGCGGCAGCUGUUGCCCUUUCCUCUCUCGUUCAUGCUUUGGAUGAGUUAAACAUGGUCGCCAUAGUUCGAUAUGCUUAUGACAAAAGAUCUAAUCCUCAAGUUGGUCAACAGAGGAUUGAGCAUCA	0.834
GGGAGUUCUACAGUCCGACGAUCUAAAUUAGGGCUGCCGUUUUCUGUUUCUCCCUGGGCUGCAGACAGCUAGAAGAUUUUAUCUAGCUUAUACAAGGCUGCUGGUGUUCCCUCUUUUUUUCCACGAGGGUGUUUUUGGCUGCACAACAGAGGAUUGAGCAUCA	0.783
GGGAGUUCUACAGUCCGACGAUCAGAAUCUUGGGACUGUUUUACUUAAUUGGUCAUUGAUAGCUUAACAAACAUGGAGAUGAGAUUAGAAAUCUUGACAUCAACAGGUAUUAAGCAGAAAAAACCAUGGCCACGUGUCUCCUGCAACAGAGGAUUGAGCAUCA	0.143
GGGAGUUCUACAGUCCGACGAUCCUGAAAAACACAGAUAUCAAAGUUGUUGACUUUGGAAGUGCAACGUAUGAUGAUGAACAUCACAGUACUUUGGUGUCUACCCGGCACUACAGAGCUCCAGAGGUCAUUUUGGCUUUAGGUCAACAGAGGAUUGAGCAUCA	0.376
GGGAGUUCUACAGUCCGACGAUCGGGACUGAUUCAUCCCAAGGACAGGCCACCCCAUUUGAUGCCUGGACUGAUGACAGUAUGGAAGGGCCUAGUCAAAAUGUUGAAGCUGAGUCAAUUCAAGAUAAUGCGCAUAUGGCAGAGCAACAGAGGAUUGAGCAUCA	0.318
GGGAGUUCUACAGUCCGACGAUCACUCAGAGAUCCACCUCAAUUGAAGUGGGGAGUAAAGUCUGAUAUUACACACCUAACUUGAUGGAUAUAUAUUUUUUUUAAUAUGAAUCUUCCUGUUCGUCCAGGGAAGAAAGAUUUGUUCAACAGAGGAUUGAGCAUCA	0.609
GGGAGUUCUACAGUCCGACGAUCUGACAAGGGCACUGCAGAGCCAUGCCUUUCCUUGACAUACAGAAAAAGCUGGGCAUCAGCCUGGACCGAUGGUUGACGUUCCUAAGCGGUGAACAGCCCUAUAAGAACGCCGCUCGGUGCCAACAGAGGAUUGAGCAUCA	0.0816
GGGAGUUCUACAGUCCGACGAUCCACGUGUCUGCAGUACUUGAUGUGGACUACUCUCCCACUGGGAAGGAAUUUGUGUCUGCUAGUUUCGAUAAGUCUAUUCGAAUCUUUCCUGUGGACAAGAGCCGAAGCAGGGAAGUGUAUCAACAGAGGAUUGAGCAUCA	0.444

A few entries again (sample 2):
Sequence	E-score
AACTAAGA	0.158
CACGTTCC	-0.132
GCCCTGGA	-0.295
GGGGTGTA	-0.107
CAACCATC	-0.0755
AACAAAAG	0.186
